Experimental data collected from several papers.
Compare with care: the assays were run in different laboratories. “And” joins repeats or separate records; there may be more than shown.
Target: Dual specificity tyrosine-phosphorylation-regulated kinase 1A (DYRK1A, Homo sapiens, UniProt Q13627)

| SMILES | observed | action | method | concentration | relative to | measurement | value |
| --- | --- | --- | --- | --- | --- | --- | --- |
| Nc1ncc(-c2cc(-c3cnn(CC(F)(F)F)c3)ncc2F)nc1C(=O)NC1CNCC(F)C1 (centres unmarked) | enzyme activity |  |  | 1 µM | DMSO control | remaining activity | 82% |
| Cc1ccc(C)c(-c2ccc3nc(NC(=O)C4CCCCC4)nn3c2)c1 | enzyme activity |  | Dundee kinase panel | 10 µM |  | remaining activity | 15% |
| C=CC(=O)Nc1cccc(-c2cnc3[nH]cc(C(=O)NC(C)(C)C)c3n2)c1 | kinase activity |  |  | 0.1 µM |  | inhibition | 12% and 9% |
| CCN1CCN(Cc2ccc(C(=O)Nc3ccc(C)c(NCc4cnc5[nH]ccc5c4OC)c3)cc2C(F)(F)F)CC1 | binding |  | competition with immobilised ligand | 1 µM |  | remaining binding | 74% |
| C=CC(=O)N1CCCC(n2c(=O)c3ncccc3n(Cc3ccc(Oc4ccccc4)cc3)c2=O)C1 (centres unmarked) | cell-free assay |  | competition with immobilised ligand | 1 µM |  | remaining binding | 66% |
| C=CC(=O)N1Cc2nc(-c3cc(-c4cc(Cl)cnc4Cl)c(F)cc3F)n(-c3ccncn3)c2C1 | cell-free assay |  |  | 1 µM |  | inhibition | 7.2% |
| O=C(Cc1ccc(OCc2ccccc2)cc1)NC1(C(=O)O)CCN(C(=O)c2ccc(-c3cccc(Cl)c3)cc2)CC1 | enzyme activity | inhibitor |  | 10 µM |  | activity vs control | 94% |
| Cc1cccc(O[C@H]2CCC[C@@H](C(C)CNCc3ccncc3)C2)c1 (relative stereo) | cell-free assay |  |  | 1 µM |  | inhibition | 4% |
| COc1cc(Nc2nccc(-c3cnn4nc(OC)ccc34)n2)cc(C(F)(F)F)c1 | binding |  | competition with immobilised ligand | 1 µM |  | remaining binding | 68% |
| CN1CC[C@@H](COc2cnc(C#N)cc2-c2ccn3nc(NC(=O)C4CC4)cc3c2)C1 | enzyme activity | inhibitor |  | 1 µM |  | inhibition | 20% |
| C[C@H]1CN(C(=O)c2cn(-c3ccnc(N)n3)c3cc(C#CC4(O)CCCCC4)ccc23)CCN1 | enzyme activity | inhibitor | FRET | 1 µM |  | inhibition | 4% |
| c1ccc2c(Nc3cc(C4CCC4)[nH]n3)nc(Nc3ccc4nc[nH]c4c3)nc2c1 | enzyme activity | inhibitor |  | 0.25 µM |  | remaining activity | 1% |
| CNC(=O)C1CCN(c2cc(C)c(F)cc2NC(=O)c2ccc(-c3cc(O)ccc3C)c(C)c2)CC1 | binding |  | competition with immobilised ligand | 1 µM |  | remaining binding | 79% |
| O=C1NCc2nc3c(ccc4ccccc43)cc21 | enzyme activity | inhibitor | ADP detection | 10 µM |  | inhibition | 91.2% |
| C=CC(=O)N1CCc2ccc(-n3c(=O)ccc4cnc5ccc(-c6cnn(C)c6)cc5c43)cc21 |  |  | KINOMEscan | 1 µM | DMSO control | remaining binding | 90% |
| Cc1cccc(-c2ccc3nc(NC(=O)C4CCCO4)nn3c2)c1 (centres unmarked) | enzyme activity |  | Dundee kinase panel | 10 µM |  | remaining activity | 59% |
| NC(=O)C[C@H]1CCc2sc3ncnc(O[C@H]4CC[C@H](N5CCOCC5)CC4)c3c21 | enzyme activity | inhibitor |  | 10 µM |  | inhibition | 36% |

Excerpt of the above:
| SMILES | observed | action | method | concentration | relative to | measurement | value |
| --- | --- | --- | --- | --- | --- | --- | --- |
| C=CC(=O)Nc1cccc(-c2cnc3[nH]cc(C(=O)NC(C)(C)C)c3n2)c1 | kinase activity |  |  | 0.1 µM |  | inhibition | 12% and 9% |
| CNC(=O)C1CCN(c2cc(C)c(F)cc2NC(=O)c2ccc(-c3cc(O)ccc3C)c(C)c2)CC1 | binding |  | competition with immobilised ligand | 1 µM |  | remaining binding | 79% |
